Measurements collected from several papers.
Numbered parts are unrelated; each lists some results of a single study. Positions count from the first letter of the parent shown.

Set 1 — technique: DHFR PCA, deep sequencing; medium: yeast; together with: (+)-ABA 17 µM; reference: wild-type fitted maximum; direction: higher = stronger binding
Target: ABI1, truncated, D143A, DHFR fusion (Arabidopsis thaliana)
Setting: methotrexate growth selection, single substitutions
Starting sequence: PYL1, truncated, DHFR fusion (Arabidopsis thaliana); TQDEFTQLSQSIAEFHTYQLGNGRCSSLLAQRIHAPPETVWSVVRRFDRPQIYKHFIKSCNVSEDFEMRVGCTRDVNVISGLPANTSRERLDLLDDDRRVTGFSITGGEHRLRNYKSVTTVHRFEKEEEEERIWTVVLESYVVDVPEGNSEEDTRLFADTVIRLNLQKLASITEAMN
For `S27E`, “relative binding score” read 21.6%.
Under “relative binding score”, `D144Q` is recorded as 37.6%.
`F124S`: “relative binding score” 70.7%.
Under “relative binding score”, `A175R` is recorded as 91%.
`G71A`: “relative binding score” 8.55%.
`K58M` — result for “relative binding score”: 48.7%.
Under “relative binding score”, `E14W` is recorded as 29.8%.
Under “relative binding score”, `P50R` is recorded as -14.4%.
`D65G` — result for “relative binding score”: 83.8%.
`Y18D` — result for “relative binding score”: 28.1%.
`I12C` — result for “relative binding score”: 31.1%.
Under “relative binding score”, `S140K` is recorded as -12.3%.
For `E174C`, “relative binding score” read 58%.
For `C72G`, “relative binding score” read 55.1%.
`T154L` — result for “relative binding score”: 8.78%.
For `D48M`, “relative binding score” read -1.42%.
`V137P`: “relative binding score” 0.855%.
Under “relative binding score”, `G81A` is recorded as 7.56%.
`Y53M` — result for “relative binding score”: 11%.
`S80H` — result for “relative binding score”: 20.1%.
For `A13S`, “relative binding score” read 80.3%.
`D153K` — result for “relative binding score”: -15.7%.
`Q31A` — result for “relative binding score”: 25.5%.
`E139W` — result for “relative binding score”: 68.5%.
For `E127V`, “relative binding score” read 87.5%.

Set 2 — technique: RNA Bind-n-Seq; form: RNA; medium: in vitro; tested at: 200 nM; setting: whole 134-nt RNA, ends assumed; together with: 150 mM LiCl; reference: input library; direction: higher = stronger binding; each molecule: 7-deaza-guanosine replaces G
Target: Ras GTPase-activating protein-binding protein 1, full length (G3BP1, Homo sapiens, UniProt Q13283)
UniProt Q13283, sequence (whole entry, looked up): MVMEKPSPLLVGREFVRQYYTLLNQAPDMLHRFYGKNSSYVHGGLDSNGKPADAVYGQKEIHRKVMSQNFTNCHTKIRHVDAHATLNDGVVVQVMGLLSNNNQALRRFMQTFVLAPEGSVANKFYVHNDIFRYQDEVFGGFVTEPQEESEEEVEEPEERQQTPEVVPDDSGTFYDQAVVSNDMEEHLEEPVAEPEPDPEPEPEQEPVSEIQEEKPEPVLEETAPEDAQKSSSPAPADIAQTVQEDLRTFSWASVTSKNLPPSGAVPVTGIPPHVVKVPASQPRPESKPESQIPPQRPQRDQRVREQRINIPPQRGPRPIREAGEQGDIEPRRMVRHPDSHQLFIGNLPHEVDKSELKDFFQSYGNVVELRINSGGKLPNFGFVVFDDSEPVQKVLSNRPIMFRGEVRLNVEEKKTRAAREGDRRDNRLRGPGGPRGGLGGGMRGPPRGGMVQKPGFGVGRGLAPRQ
For `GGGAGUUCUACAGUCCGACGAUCCCCAUGCAGGUGGGCAUCUUUGGGAAGUGGGGCAAGGGGGGGAUAGGGAGGGGGGUAACACUUUGGGAACAGGUGGUCCCAGGUCGUUUCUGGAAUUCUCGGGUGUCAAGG`, the log2 enrichment was 0.626.
The log2 enrichment of `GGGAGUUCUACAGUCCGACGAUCAGUCCUGUGCUACACAUCGUAUGUACCGAAUCGGGAAAAGGGGAAAAGGGGAAAAGGAAAGUAUUAUGUUACGCCGUUCGGAUCUGCACUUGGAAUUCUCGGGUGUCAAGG` is reported as -0.422.
`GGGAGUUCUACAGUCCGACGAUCGUCCUGUGCUACACAUCGUAUGUACCGAAUCGGGGUUUUUUUGGGGUGGGGAAAGGGGAAAGUAUUAUGUUACGCCGUUCGGAUCUGCACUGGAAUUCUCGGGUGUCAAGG` gave a log2 enrichment of 0.44.
With `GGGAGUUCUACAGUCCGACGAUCCACAGACAACACGCACCCACCCAGACACAGAGGGAAGGGGUUGGGAUGGGGACAGGGUGCACAGCAGGGCGGGGUAGGACCCCAGCCCCUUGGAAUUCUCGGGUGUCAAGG` the log2 enrichment was -0.745.
For `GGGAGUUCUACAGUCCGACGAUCUGGACAUGGAUUUUCAAGCCUACUUAGCUUCCUCUAGUGAAGAUGAAGAGGAGAUAGAAGAGGAGCUACAAGGUAUUGUUAAUCUUUCAGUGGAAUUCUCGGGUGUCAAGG`, the log2 enrichment was -1.76.
For `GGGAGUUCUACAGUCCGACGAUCUGGCCCUGGUGGCAUGCGGGGAGGAAGAGGUGGCCUCAUGGAUCGUGGUGGUCCCGGUGGAAUGUUCAGAGGUGGCCGUGGUGGAGACAUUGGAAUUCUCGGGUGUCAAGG`, the log2 enrichment was 0.568.
`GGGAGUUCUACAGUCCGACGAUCUUUUACAACCCCAAUUUAAAGAAAGUUGUAGAGGCCCACAAGAUCGUUCUCUGCGCUGUAAGCCAUGUUUUCAUGCUGCUUUUCAAUGUGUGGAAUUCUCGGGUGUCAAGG` gave a log2 enrichment of -1.43.
For `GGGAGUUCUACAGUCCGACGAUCCUCAAGUCCUGUGCUACACAUCGUAUGUACCGAAUCGGAAAAAGGUUUGGUGGAAAGUAUUAUGUUACGCCGUUCGGAUCUGCACUUCCAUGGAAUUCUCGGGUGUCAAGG`, the log2 enrichment was 0.0606.
`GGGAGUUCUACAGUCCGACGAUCCCUCAAGUCCUGUGCUACACAUCGUAUGUACCGAAUCGGAAAGGAGGAAAGGAAAGUAUUAUGUUACGCCGUUCGGAUCUGCACUUCCAGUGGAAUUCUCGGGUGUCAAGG` has a log2 enrichment of -0.169.
`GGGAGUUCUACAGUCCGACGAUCCAAGUCCUGUGCUACACAUCGUAUGUACCGAAUCGGGAAAAGGAAAAGGGAAAAGGAAAGUAUUAUGUUACGCCGUUCGGAUCUGCACUUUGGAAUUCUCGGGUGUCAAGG` gave a log2 enrichment of -1.13.
For `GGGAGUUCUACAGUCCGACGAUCGUCCUGUGCUACACAUCGUAUGUACCGAAUCAAAUUUAAACCCCCCCAAAUUUUUAAAAAAGUAUUAUGUUACGCCGUUCGGAUCUGCACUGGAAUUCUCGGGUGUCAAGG`, the log2 enrichment was 1.

Set 3 — target: CCNE2, cyclin fold, Cln2 fusion (human); technique: yeast growth competition, sequencing; medium: yeast; setting: weak parent motif; reference: not given; direction: higher = stronger binding
Starting sequence: DBF4 docking peptide (human); DDIVSKLVFDFVE
`V4A` — result for “normalised enrichment score”: 0.0738.
For `S5A`, “normalised enrichment score” read -0.213.
`F11A` — result for “normalised enrichment score”: 0.143.
For `K6A`, “normalised enrichment score” read 0.00934.
For `D1A`, “normalised enrichment score” read -0.0704.
`D2A`: “normalised enrichment score” 0.269.
`D10A` — result for “normalised enrichment score”: -0.311.

Set 4 — technique: RNA Bind-n-Seq; form: RNA; medium: in vitro; tested at: 100 nM; reference: input RNA pool; direction: higher = stronger binding
Target: RING finger protein unkempt homolog, zinc fingers 1-6, SBP tag (UNK, Homo sapiens, UniProt Q9C0B0, residues 30-357)
UniProt Q9C0B0, sequence (30-357, looked up): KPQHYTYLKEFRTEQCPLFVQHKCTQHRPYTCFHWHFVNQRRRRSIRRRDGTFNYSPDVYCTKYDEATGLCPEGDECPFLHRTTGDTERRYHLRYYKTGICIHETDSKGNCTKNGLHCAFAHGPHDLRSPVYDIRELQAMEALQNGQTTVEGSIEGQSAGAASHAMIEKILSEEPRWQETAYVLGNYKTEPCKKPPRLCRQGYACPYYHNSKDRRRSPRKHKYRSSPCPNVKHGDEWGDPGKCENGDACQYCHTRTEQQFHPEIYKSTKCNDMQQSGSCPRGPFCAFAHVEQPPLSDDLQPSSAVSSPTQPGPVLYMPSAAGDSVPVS
Setting: RNA with constant flanks, vertebrate orthologous sites, ends assumed
With `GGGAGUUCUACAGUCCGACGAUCCAGCUGAUUCACUCAUUGGGAGAGCUGCACAUAUAGCUGUUCUUGAUUCGGAAAUAUUUUUAGAGAAAUUCUUUCUGGUUGCUGCCCUCAAAUAUUUCCAAUAGUAUAAAAGCAUUGUUACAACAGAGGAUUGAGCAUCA` the bound/input enrichment was 1.48 ratio.
For `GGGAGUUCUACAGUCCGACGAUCAUUUAGAAUAUUCAUGAAUGGCUCCAAGAUGUGUGAAGUCCGUUCUGUAGGAUGAGACCACAGCAUGGUGACUGUGUGUGUGUGUGUGUGUGUGUGUGUGUGUGUGUAUCGCUGCCAAAGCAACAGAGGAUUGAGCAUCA`, the bound/input enrichment was 1.41 ratio.
With `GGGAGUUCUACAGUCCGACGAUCGAUGGUGGUUGUGCAUUUCAUUUCAUUUAGAAAAUAUAAAAAUUCAUUUUGUUUCGAAGCAAGGUAUUUACUGGAAUAGCUAUUAUUAUACUCCUGAGAUUAGGGCAUUGUGCCCUUACCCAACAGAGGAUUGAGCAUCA` the bound/input enrichment was 3.45 ratio.
For `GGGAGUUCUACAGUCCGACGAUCAAAUUUAUUUCAUGCCCUGGACUCCCUACCGCACUGAUACUUUAAUAGAGUAUGCUUCUAUAGAAGAUUUCCAAAACAGUCGCCAAACAACGACAUACAAACUUCCAAACCGAGUAGAUGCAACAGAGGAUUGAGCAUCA`, the bound/input enrichment was 0.943 ratio.
With `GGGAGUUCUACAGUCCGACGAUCCAUCUCUCAUUUUAUAUGUCCAGAAAUGGCUUUGAAUUUUAAGCAAUUACUAGUUUUAAUUAGCUCUGCCCUCAUGAAGUAUUAUUAUAAUUCACCAUAAACAGCUAUCUGUCUGAAUUACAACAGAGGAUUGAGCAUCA` the bound/input enrichment was 1.12 ratio.
With `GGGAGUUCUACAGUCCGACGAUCGUUAGGUCAUGACCCUUACAGAUUAGGUCAUGAUGCUUAUAGGUUAGGACAGGACCCCUAUAGAUUAGGCCACGAUCCCUACAGACUAACUCCUGAUCCCUAUAGGAUGUCACCUAGACCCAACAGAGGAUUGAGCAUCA` the bound/input enrichment was 0.976 ratio.
`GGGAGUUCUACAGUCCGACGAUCACAGAGGCACUUUCUCCUUCGGUCUUUCAUUGUAAGAAGAAAUGGACCCAUGCACAUUUAUAUAGCUUUCUAAUAGCAUUAAAACCAAUGCCUUUUUAGACUCCUAUUUUUGAUGUAUAUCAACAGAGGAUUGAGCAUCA` has a bound/input enrichment of 0.417 ratio.
With `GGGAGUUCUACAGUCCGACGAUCUUUUAUUGAUCAGGUUUGUAAAUGUGUACCAACAAAAUCAGAGUUUAUUUAUAAACAGAAUAGAUUAUUUAAAGAGACGGUCUUUCCUCAUUGAUAUUGUGGUAUGCUUUAAUUCCAUUUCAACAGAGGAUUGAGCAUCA` the bound/input enrichment was 0.218 ratio.
With `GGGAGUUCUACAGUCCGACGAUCCGCCGCCAUGGUGGACGGCUCUGAGCUGAAGAAAGUGCGAUCCAACUCCCGCGUCUACCACCGCUACUUCCUCCUGGACGCCGACAUGCAGUCUCUGAGAUGGGAGCCCACCAAGAAGGACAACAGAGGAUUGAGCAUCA` the bound/input enrichment was 0.366 ratio.
`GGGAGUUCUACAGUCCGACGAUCAACUGGUUUUGGGUUUGUUGUUUUUUUUUAAAUUUCUCUCCAGUUCUUUUUUUUUUUACAUCGUUGUCUGUCUGUGUCUGUCACAUUUCCUUCUCAGGCGAAGGGCUAGAGUUAAAAAAACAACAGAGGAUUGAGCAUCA` gave a bound/input enrichment of 0.826 ratio.
For `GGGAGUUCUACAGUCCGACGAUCCAUCUCUCAUUUUAUAUGUUCAAAAGAUCUUUGAAUCUUUGAACAAUUGUUAGUUUUAAUUAGCUCUGCCCUCAUGAAGUGUUAUUAUAAUUCACCACAAACAGAUCUCUGUCUGAAUUACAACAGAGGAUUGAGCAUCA`, the bound/input enrichment was 1.69 ratio.

Repeated from above (set 2):
`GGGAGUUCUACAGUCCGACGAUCGUCCUGUGCUACACAUCGUAUGUACCGAAUCGGGGUUUUUUUGGGGUGGGGAAAGGGGAAAGUAUUAUGUUACGCCGUUCGGAUCUGCACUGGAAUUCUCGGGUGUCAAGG` gave a log2 enrichment of 0.44.
With `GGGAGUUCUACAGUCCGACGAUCCACAGACAACACGCACCCACCCAGACACAGAGGGAAGGGGUUGGGAUGGGGACAGGGUGCACAGCAGGGCGGGGUAGGACCCCAGCCCCUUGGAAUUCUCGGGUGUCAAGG` the log2 enrichment was -0.745.
For `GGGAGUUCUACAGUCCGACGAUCUGGACAUGGAUUUUCAAGCCUACUUAGCUUCCUCUAGUGAAGAUGAAGAGGAGAUAGAAGAGGAGCUACAAGGUAUUGUUAAUCUUUCAGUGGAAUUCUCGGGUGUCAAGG`, the log2 enrichment was -1.76.
For `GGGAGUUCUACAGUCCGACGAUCUGGCCCUGGUGGCAUGCGGGGAGGAAGAGGUGGCCUCAUGGAUCGUGGUGGUCCCGGUGGAAUGUUCAGAGGUGGCCGUGGUGGAGACAUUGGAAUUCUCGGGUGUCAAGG`, the log2 enrichment was 0.568.
`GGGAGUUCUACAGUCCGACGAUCUUUUACAACCCCAAUUUAAAGAAAGUUGUAGAGGCCCACAAGAUCGUUCUCUGCGCUGUAAGCCAUGUUUUCAUGCUGCUUUUCAAUGUGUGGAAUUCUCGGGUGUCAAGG` gave a log2 enrichment of -1.43.
For `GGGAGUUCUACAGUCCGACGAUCCUCAAGUCCUGUGCUACACAUCGUAUGUACCGAAUCGGAAAAAGGUUUGGUGGAAAGUAUUAUGUUACGCCGUUCGGAUCUGCACUUCCAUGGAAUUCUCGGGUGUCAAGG`, the log2 enrichment was 0.0606.
`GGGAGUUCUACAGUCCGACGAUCCCUCAAGUCCUGUGCUACACAUCGUAUGUACCGAAUCGGAAAGGAGGAAAGGAAAGUAUUAUGUUACGCCGUUCGGAUCUGCACUUCCAGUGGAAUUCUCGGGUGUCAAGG` has a log2 enrichment of -0.169.
`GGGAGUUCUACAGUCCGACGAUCCAAGUCCUGUGCUACACAUCGUAUGUACCGAAUCGGGAAAAGGAAAAGGGAAAAGGAAAGUAUUAUGUUACGCCGUUCGGAUCUGCACUUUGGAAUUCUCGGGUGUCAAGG` gave a log2 enrichment of -1.13.
For `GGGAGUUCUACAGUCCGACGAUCGUCCUGUGCUACACAUCGUAUGUACCGAAUCAAAUUUAAACCCCCCCAAAUUUUUAAAAAAGUAUUAUGUUACGCCGUUCGGAUCUGCACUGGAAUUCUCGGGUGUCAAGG`, the log2 enrichment was 1.
